Experimental data gathered from unrelated publications.
Each numbered part is a random draw from the data of one study; scales do not carry over between parts. “And” joins repeats or separate records; there may be more than shown.
Sequence of UniProt P21397 (whole entry, looked up): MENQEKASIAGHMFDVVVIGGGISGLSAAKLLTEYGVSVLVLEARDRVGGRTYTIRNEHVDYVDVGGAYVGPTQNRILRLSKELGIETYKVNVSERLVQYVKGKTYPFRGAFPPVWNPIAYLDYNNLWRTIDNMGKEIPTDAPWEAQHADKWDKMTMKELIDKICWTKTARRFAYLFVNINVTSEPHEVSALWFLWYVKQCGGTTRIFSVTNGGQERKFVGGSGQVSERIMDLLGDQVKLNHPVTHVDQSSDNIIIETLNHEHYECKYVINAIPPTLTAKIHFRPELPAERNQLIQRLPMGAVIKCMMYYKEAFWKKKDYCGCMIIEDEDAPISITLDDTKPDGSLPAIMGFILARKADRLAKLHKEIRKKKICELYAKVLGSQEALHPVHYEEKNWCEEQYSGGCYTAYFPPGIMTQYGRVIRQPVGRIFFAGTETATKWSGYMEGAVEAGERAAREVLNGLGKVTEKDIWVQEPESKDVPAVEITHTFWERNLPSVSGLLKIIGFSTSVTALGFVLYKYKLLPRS

Sample 1
Compound: CCOC(=O)/C=C/CNCCCCN1c2cc(Cl)ccc2CCc2cnn(C)c21.O=C(O)/C=C\C(=O)O
Cell line: NCI-H292
Technique: CellTiter-Glo
Time: 72 h
For 5 µM: viability read 18.2% and 18.9% and 19.1%.
It gave 97.8% and 99% and 96.8% for viability (0.5 µM).
50 µM — viability: -0.333% and -0.579% and -0.507%.
It gave 103% and 105% for viability (0.05 µM).

Sample 2
SMILES: Cc1ccc(O)c(C)c1-c1cnc2[nH]c(-c3ccc(N4CCN(C)CC4)nc3C)nc2c1
Target: Membrane-associated tyrosine- and threonine-specific cdc2-inhibitory kinase (PKMYT1, Homo sapiens, UniProt Q99640)
Residues (Q99640 1-499): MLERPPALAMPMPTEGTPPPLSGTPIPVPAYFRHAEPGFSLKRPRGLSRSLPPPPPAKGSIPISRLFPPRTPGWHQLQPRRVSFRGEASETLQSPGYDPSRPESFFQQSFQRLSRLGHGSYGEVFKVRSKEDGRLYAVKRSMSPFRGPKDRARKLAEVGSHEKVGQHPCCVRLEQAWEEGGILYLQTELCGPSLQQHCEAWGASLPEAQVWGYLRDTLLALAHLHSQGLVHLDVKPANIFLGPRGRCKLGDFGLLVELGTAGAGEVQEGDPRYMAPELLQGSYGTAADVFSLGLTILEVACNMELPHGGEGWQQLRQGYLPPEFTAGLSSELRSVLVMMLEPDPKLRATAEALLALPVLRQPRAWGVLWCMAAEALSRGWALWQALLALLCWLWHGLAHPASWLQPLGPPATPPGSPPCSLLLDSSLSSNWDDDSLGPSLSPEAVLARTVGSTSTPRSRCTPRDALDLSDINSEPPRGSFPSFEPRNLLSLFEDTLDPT
0.3704 µM — inhibition: 50.3%.
For 0.00152 µM: inhibition read -15.9% and -17.3%.
The inhibition was -1.82% and 2.68% (0.04115 µM).
cell-free assay, TR-FRET; 0.3704 µM — inhibition: 57%.
3.333 µM — inhibition: 90.9%.
It gave -10.8% and -9.8% for inhibition (0.01372 µM).
cell-free assay, TR-FRET; 0.1235 µM — inhibition: 20.1%.
The inhibition was -13.6% (0.00051 µM).

Sample 3
SMILES: C[C@@H]1CN(c2ccc(-c3cc(C(=O)NCCOCCOCCOCCOCCNC(=O)Cn4cc(-c5[nH]cc(C(=O)N[C@@H](CC(N)=O)c6ccc(F)c(Cl)c6)c5-c5ccc(Cl)cc5F)cn4)ccc3F)cc2NC(=O)c2c[nH]c(=O)cc2C(F)(F)F)C[C@H](C)N1C
Effect on: thermal unfolding
Technique: differential scanning fluorimetry
Concentration: 5.5 µM
Reading: higher = more unfolded
DCAF1: DDB1- and CUL4-associated factor 1 (DCAF1, Homo sapiens, UniProt Q9Y4B6)
Sequence of UniProt Q9Y4B6 (whole entry, looked up): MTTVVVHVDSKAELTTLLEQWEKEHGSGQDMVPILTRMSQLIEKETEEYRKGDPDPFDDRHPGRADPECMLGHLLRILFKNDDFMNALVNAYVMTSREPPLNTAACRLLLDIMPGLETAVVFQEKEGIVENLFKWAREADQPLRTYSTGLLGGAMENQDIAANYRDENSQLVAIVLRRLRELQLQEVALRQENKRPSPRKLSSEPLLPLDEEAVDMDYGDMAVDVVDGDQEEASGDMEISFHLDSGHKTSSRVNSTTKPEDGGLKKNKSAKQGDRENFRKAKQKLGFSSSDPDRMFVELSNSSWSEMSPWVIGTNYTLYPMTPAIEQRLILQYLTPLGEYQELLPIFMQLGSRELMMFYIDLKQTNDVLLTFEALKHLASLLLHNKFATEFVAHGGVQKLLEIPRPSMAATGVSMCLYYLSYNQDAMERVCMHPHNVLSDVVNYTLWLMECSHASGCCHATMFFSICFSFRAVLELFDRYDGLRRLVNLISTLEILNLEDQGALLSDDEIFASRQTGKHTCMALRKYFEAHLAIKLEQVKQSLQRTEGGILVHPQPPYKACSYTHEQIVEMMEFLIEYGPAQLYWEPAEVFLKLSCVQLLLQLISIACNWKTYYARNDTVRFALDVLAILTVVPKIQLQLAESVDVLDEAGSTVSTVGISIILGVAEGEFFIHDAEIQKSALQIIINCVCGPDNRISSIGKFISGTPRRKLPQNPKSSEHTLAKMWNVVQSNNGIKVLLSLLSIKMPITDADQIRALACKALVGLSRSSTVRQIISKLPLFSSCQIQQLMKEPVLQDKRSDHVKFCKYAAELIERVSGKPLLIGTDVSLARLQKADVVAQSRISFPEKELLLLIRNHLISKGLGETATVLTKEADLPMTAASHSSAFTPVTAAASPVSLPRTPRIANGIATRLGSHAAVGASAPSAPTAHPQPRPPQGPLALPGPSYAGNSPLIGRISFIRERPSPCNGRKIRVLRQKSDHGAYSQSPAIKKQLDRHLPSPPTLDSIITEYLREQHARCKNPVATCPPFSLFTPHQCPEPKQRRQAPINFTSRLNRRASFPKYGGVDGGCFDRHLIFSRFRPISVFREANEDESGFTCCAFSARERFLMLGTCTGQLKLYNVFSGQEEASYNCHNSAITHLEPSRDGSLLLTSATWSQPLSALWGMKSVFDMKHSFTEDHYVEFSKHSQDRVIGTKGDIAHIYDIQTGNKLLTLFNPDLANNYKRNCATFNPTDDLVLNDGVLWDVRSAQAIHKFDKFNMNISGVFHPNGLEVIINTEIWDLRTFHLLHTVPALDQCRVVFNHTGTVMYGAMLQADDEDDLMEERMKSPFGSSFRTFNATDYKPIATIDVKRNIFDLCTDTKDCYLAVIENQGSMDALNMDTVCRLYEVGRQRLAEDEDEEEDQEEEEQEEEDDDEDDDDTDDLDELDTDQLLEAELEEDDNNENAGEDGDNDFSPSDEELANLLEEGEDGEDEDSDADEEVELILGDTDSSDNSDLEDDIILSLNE
WDR5: WD repeat-containing protein 5 (WDR5, Homo sapiens, UniProt P61964)
The “SYPRO Orange fluorescence” was 35700 a.u. (DCAF1; 89.41 °C).
WDR5; 71.21 °C — “SYPRO Orange fluorescence”: 7250 a.u.
It gave 14700 a.u. for “SYPRO Orange fluorescence” (WDR5; 26.6 °C).
The “SYPRO Orange fluorescence” was 11500 a.u. (WDR5; 75.21 °C).
For DCAF1; 40.4 °C: “SYPRO Orange fluorescence” read 10500 a.u.
The “SYPRO Orange fluorescence” was 14900 a.u. (WDR5; 29.4 °C).
For DCAF1; 51.2 °C: “SYPRO Orange fluorescence” read 15300 a.u.
For WDR5; 31.8 °C: “SYPRO Orange fluorescence” read 14600 a.u.
For WDR5; 89.61 °C: “SYPRO Orange fluorescence” read 43400 a.u.
The “SYPRO Orange fluorescence” was 11400 a.u. (DCAF1; 43 °C).
It gave 11000 a.u. for “SYPRO Orange fluorescence” (DCAF1; 41.6 °C).

Sample 4
Structure (SMILES): CS(=O)(=O)c1ccc(OC/C(=C/F)CN)cc1.Cl
Amine oxidase [copper-containing] 3: Amine oxidase [copper-containing] 3 (Rattus norvegicus, UniProt O08590)
Sequence of UniProt O08590 (whole entry, looked up): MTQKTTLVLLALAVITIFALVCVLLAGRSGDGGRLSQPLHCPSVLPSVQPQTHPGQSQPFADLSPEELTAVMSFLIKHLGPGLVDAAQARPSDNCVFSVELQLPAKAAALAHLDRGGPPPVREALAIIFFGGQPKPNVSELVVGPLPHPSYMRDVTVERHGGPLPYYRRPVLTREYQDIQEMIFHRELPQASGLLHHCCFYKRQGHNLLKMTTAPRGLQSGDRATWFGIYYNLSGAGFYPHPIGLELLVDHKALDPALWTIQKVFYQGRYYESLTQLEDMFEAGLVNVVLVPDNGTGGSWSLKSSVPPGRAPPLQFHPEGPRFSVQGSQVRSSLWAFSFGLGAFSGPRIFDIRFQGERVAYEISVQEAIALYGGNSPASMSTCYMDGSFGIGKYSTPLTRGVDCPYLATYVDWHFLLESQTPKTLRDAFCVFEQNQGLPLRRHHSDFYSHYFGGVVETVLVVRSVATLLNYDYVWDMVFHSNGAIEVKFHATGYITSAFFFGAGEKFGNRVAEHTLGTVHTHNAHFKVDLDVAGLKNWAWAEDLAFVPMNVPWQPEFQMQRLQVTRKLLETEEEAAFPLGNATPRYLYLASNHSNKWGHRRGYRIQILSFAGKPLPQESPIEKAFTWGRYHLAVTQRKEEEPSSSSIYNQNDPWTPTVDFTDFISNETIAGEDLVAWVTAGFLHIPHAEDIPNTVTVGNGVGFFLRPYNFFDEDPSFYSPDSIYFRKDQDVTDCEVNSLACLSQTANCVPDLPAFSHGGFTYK
Amine oxidase [copper-containing] 3; rat adipose tissue; 0.0014 µM — inhibition: 29.5%.
Amine oxidase [flavin-containing] A (MAOA, Homo sapiens, UniProt P21397); enzyme activity, inhibitor; 4.6 nM — inhibition: -2.57% and -2.11% and -2.3% and 2.05% and 4.44%.
Amine oxidase [copper-containing] 3; rat adipose tissue; 0.0002 µM — inhibition: -4.89%.

For quick reference, copied from above (sample 3):
For WDR5; 89.61 °C: “SYPRO Orange fluorescence” read 43400 a.u.
The “SYPRO Orange fluorescence” was 11400 a.u. (DCAF1; 43 °C).
It gave 11000 a.u. for “SYPRO Orange fluorescence” (DCAF1; 41.6 °C).
